# Measurements of several laboratories.
# Compare with care: the assays were run in different laboratories.
# IL18BP: IL18BP (Homo sapiens, UniProt O95998)
# MALT1: MALT1 (Homo sapiens, UniProt Q9UDY8)
# Sequence of UniProt Q9UDY8 (whole entry, looked up): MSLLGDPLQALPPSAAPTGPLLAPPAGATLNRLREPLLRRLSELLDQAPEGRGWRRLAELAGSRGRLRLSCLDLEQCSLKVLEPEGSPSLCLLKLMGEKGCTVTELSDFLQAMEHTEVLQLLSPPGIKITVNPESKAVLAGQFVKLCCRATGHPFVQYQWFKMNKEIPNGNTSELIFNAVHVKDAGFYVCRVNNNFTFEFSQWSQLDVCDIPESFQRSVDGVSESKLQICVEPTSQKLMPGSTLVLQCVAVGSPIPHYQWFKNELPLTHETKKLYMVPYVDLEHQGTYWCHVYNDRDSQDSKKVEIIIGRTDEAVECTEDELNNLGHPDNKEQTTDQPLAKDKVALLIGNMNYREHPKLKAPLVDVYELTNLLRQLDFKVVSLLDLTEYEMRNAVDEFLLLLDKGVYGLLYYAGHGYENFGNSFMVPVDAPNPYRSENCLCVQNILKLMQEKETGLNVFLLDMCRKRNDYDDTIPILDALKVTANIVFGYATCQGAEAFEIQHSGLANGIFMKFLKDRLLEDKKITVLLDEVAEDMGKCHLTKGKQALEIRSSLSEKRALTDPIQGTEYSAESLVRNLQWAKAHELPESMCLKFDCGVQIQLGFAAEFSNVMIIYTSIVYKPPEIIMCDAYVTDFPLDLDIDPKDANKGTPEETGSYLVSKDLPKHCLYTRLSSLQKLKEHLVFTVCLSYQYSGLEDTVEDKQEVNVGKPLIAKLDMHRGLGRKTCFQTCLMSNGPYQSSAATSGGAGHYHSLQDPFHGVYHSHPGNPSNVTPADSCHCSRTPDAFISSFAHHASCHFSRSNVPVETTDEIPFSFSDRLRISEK
# B1: IL18 37-193 L45C/C74S/C104S/C112S/C163S/E192C (Homo sapiens, UniProt Q14116); chain YFGKLESKCSVIRNLNDQVLFIDQGNRPLFEDMTDSDSRDNAPRTIFIISMYKDSQPRGMAVTISVKSEKISTLSSENKIISFKEMNPPDNIKDTKSDIIFFQRSVPGHDNKMQFESSSYEGYFLASEKERDLFKLILKKEDELGDRSIMFTVQNCD
# B2: EFR3B 716-787 (Homo sapiens, UniProt Q9Y2G0); chain VPAEEITYETLKKAIVDSVAVEEQERERRRQVVEKFQKAPFEEIAAHCGARASLLQSKLNQIFEITIRPPPS
# B3: CDC48A 1-190 (Arabidopsis thaliana, UniProt P54609); chain MSTPAESSDSKSKKDFSTAILERKKSPNRLVVDEAINDDNSVVSLHPATMEKLQLFRGDTILIKGKKRKDTVCIALADETCEEPKIRMNKVVRSNLRVRLGDVISVHQCPDVKYGKRVHILPVDDTVEGVTGNLFDAYLKPYFLEAYRPVRKGDLFLVRGGMRSVEFKVIETDPAEYCVVAPDTEIFCEG
# B4: EFR3A 721-791 (Homo sapiens, UniProt Q14156); chain SNTEEITFEALKKAIDTSGMEEQEKEKRRLVIEKFQKAPFEEIAAQCESKANLLHDRLAQILELTIRPPPS
# B5: UPF2 761-1054 (Homo sapiens, UniProt Q9HAU5); sequence looked up; chain EKTVKKKRPPLQEYVRKLLYKDLSKVTTEKVLRQMRKLPWQDQEVKDYVICCMINIWNVKYNSIHCVANLLAGLVLYQEDVGIHVVDGVLEDIRLGMEVNQPKFNQRRISSAKFLGELYNYRMVESAVIFRTLYSFTSFGVNPDGSPSSLDPPEHLFRIRLVCTILDTCGQYFDRGSSKRKLDCFLVYFQRYVWWKKSLEVWTKDHPFPIDIDYMISDTLELLRPKIKLCNSLEESIRQVQDLEREFLIKLGLVNDKDSKDSMTEGENLEEDEEEEEGGAETEEQSGNESEVNE
# B6: TNFSF4 51-183 (Homo sapiens, UniProt P23510); sequence looked up; chain QVSHRYPRIQSIKVQFTEYKKEKGFILTSQKEDEIMKVQNNSVIINCDGFYLISLKGYFSQEVNISLHYQKDEEPLFQLKKVRSVNSLMVASLTYKDKVYLNVTTDNTSLDDFHVNGGELILIHQNPGEFCVL
# B7: IL18 37-193 N50C/C74S/C104S/L174C (Homo sapiens, UniProt Q14116); chain YFGKLESKLSVIRCLNDQVLFIDQGNRPLFEDMTDSDSRDNAPRTIFIISMYKDSQPRGMAVTISVKSEKISTLSCENKIISFKEMNPPDNIKDTKSDIIFFQRSVPGHDNKMQFESSSYEGYFLACEKERDLFKLICKKEDELGDRSIMFTVQNED
# B8: designed binder (Homo sapiens); chain MASAARLTMMWEEVTCPICLDPFVEPVSIECGHSFCQECISQVGKGGGSVCPVCRQRFLLKNLRPNRQLANMVNNLKEISQEAREGTQGERCAVHGERLHLFCEKDGKALCWVCAQSRKHRDHAMVPLEEAAQEYQEKLQVALGELRRKQELAEKLEVEIAIKRADWKKTVETQKSRIHAEFVQQKNFLVEEEQRQLQELEKDEREQLRILGEKEAKLAQQSQALQELISELDRRCHSSALELLQEVIIVLERSESWNLKDLDITSPELRSVCHVPGLKKMLRTCAGGGGSGGGGSGGGGSRLDAPSAIRVYRVTDVYAIIYWYVPLAEIDGFELTYGIKDVPGDRTTIKLTEDDSTYVIYRLKPDTEYEVSLISRRGDMSSNPAKITFKTGL
# B9: IL18 37-193 C74S/C104S/C112S/A162C/C163S/I185C (Homo sapiens, UniProt Q14116); chain YFGKLESKLSVIRNLNDQVLFIDQGNRPLFEDMTDSDSRDNAPRTIFIISMYKDSQPRGMAVTISVKSEKISTLSSENKIISFKEMNPPDNIKDTKSDIIFFQRSVPGHDNKMQFESSSYEGYFLCSEKERDLFKLILKKEDELGDRSCMFTVQNED
# B10: EFNB1 28-237 (Homo sapiens, UniProt P98172); sequence looked up; chain LAKNLEPVSWSSLNPKFLSGKGLVIYPKIGDKLDIICPRAEAGRPYEYYKLYLVRPEQAAACSTVLDPNVLVTCNRPEQEIRFTIKFQEFSPNYMGLEFKKHHDYYITSTSNGSLEGLENREGGVCRTRTMKIIMKVGQDPNAVTPEQLTTSRPSKEADNTVKMATQAPGSRGSLGDSDGKHETVNQEEKSGPGASGGSSGDPDGFFNSK
# B11: designed binder (Homo sapiens); chain MASAARLTMMWEEVTCPICLDPFVEPVSIECGHSFCQECISQVGKGGGSVCPVCRQRFLLKNLRPNRQLANMVNNLKEISQEAREGTQGERCAVHGERLHLFCEKDGKALCWVCAQSRKHRDHAMVPLEEAAQEYQEKLQVALGELRRKQELAEKLEVEIAIKRADWKKTVETQKSRIHAEFVQQKNFLVEEEQRQLQELEKDEREQLRILGEKEAKLAQQSQALQELISELDRRCHSSALELLQEVIIVLERSESWNLKDLDITSPELRSVCHVPGLKKMLRTCAGGGGSGGGGSGGGGSRLDAPSTIAVYRVSYTYAIIYWYSPLAEIDGFELTYGIKDVPGDRTTIKLTEDDGHYVIRHLKPDTEYEVSLISRRGDMSSNPAKITFKTGL
# B12: VHH nanobody 6B1 (Lama glama); chain QVQLQESGGGLVQPGGSLRLSCAASGSIFSTDAMGWYRQFPGKNRKLVARISSGDYGDYTNYADSVKGRFTISRDNAKNTVYLQMNSLKPEDTAVYYCNSVPPAPGEYGRDYWGAGTQVTVSS
# B13: designed binder (Homo sapiens); chain MASAARLTMMWEEVTCPICLDPFVEPVSIECGHSFCQECISQVGKGGGSVCPVCRQRFLLKNLRPNRQLANMVNNLKEISQEAREGTQGERCAVHGERLHLFCEKDGKALCWVCAQSRKHRDHAMVPLEEAAQEYQEKLQVALGELRRKQELAEKLEVEIAIKRADWKKTVETQKSRIHAEFVQQKNFLVEEEQRQLQELEKDEREQLRILGEKEAKLAQQSQALQELISELDRRCHSSALELLQEVIIVLERSESWNLKDLDITSPELRSVCHVPGLKKMLRTCAGGGGSGGGGSGGGGSRLDAPSYIEVRAVRDNWAVITWDYPLAEIDGFELTYGIKDVPGDRTTIKLTEDDYYYYIDYLKPDTEYEVSLISRRGDMSSNPAKITFKTGL
# B14: IL18 37-193 F57C/C74S/T81C/C104S/C112S/C163S (Homo sapiens, UniProt Q14116); chain YFGKLESKLSVIRNLNDQVLCIDQGNRPLFEDMTDSDSRDNAPRCIFIISMYKDSQPRGMAVTISVKSEKISTLSSENKIISFKEMNPPDNIKDTKSDIIFFQRSVPGHDNKMQFESSSYEGYFLASEKERDLFKLILKKEDELGDRSIMFTVQNED
# B15: IL18 37-193 S43C/C74S/S86C/C104S/C112S/C163S (Homo sapiens, UniProt Q14116); chain YFGKLECKLSVIRNLNDQVLFIDQGNRPLFEDMTDSDSRDNAPRTIFIICMYKDSQPRGMAVTISVKSEKISTLSSENKIISFKEMNPPDNIKDTKSDIIFFQRSVPGHDNKMQFESSSYEGYFLASEKERDLFKLILKKEDELGDRSIMFTVQNED
# B16: UPF3B (Homo sapiens, UniProt Q9BZI7); sequence looked up; chain MKEEKEHRPKEKRVTLLTPAGATGSGGGTSGDSSKGEDKQDRNKEKKEALSKVVIRRLPPTLTKEQLQEHLQPMPEHDYFEFFSNDTSLYPHMYARAYINFKNQEDIILFRDRFDGYVFLDNKGQEYPAIVEFAPFQKAAKKKTKKRDTKVGTIDDDPEYRKFLESYATDNEKMTSTPETLLEEIEAKNRELIAKKTTPLLSFLKNKQRMREEKREERRRREIERKRQREEERRKWKEEEKRKRKDIEKLKKIDRIPERDKLKDEPKIKVHRFLLQAVNQKNLLKKPEKGDEKELDKREKAKKLDKENLSDERASGQSCTLPKRSDSELKDEKPKRPEDESGRDYREREREYERDQERILRERERLKRQEEERRRQKERYEKEKTFKRKEEEMKKEKDTLRDKGKKAESTESIGSSEKTEKKEEVVKRDRIRNKDRPAMQLYQPGARSRNRLCPPDDSTKSGDSAAERKQESGISHRKEGGEE
# Sequence of UniProt P29317 (25-968, looked up): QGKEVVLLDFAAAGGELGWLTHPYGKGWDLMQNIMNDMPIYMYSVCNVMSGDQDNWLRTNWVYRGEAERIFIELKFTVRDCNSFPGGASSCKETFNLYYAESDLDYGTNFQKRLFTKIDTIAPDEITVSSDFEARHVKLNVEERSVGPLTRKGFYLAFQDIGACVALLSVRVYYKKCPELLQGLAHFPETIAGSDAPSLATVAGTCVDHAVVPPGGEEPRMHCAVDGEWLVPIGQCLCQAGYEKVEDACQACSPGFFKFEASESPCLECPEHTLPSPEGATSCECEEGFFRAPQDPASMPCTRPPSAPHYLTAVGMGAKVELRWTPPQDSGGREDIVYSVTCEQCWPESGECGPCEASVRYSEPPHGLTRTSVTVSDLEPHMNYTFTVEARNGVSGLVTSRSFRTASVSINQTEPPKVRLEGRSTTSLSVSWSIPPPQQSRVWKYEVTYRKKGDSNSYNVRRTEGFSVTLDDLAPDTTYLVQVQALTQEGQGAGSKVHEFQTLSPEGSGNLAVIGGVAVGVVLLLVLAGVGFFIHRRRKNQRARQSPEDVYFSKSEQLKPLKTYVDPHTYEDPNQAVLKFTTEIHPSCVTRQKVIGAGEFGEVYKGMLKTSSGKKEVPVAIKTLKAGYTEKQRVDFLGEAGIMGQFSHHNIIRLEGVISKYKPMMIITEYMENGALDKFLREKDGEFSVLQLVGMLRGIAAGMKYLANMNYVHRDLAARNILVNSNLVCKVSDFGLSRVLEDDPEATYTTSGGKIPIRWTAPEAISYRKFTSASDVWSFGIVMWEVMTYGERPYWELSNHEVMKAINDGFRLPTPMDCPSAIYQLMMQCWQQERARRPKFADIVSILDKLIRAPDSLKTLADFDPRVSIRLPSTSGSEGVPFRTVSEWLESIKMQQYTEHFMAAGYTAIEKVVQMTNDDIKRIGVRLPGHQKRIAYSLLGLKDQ
# Sequence of UniProt O75530 (whole entry, looked up): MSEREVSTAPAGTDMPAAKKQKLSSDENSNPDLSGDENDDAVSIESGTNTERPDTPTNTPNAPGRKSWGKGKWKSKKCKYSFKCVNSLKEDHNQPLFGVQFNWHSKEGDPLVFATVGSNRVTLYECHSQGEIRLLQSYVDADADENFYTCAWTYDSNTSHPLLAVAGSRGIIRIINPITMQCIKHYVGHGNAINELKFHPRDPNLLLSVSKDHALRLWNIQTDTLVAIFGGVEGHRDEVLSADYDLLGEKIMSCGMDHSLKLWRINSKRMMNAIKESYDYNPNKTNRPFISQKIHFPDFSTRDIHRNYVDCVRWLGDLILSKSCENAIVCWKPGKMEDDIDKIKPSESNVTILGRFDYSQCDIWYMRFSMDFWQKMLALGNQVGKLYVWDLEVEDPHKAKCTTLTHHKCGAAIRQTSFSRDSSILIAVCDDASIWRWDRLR
# Sequence of UniProt P12314 (whole entry, looked up): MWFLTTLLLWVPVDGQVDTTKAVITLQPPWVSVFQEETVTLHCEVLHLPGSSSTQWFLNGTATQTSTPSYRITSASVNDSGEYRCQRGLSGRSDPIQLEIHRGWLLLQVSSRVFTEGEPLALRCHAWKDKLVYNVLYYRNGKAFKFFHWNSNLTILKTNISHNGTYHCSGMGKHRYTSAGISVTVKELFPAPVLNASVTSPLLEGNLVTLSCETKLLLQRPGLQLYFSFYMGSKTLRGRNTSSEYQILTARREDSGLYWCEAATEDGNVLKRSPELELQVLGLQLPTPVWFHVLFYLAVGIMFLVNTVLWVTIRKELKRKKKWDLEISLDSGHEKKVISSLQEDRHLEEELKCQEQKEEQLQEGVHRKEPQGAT
# Sequence of UniProt P11362 (whole entry, looked up): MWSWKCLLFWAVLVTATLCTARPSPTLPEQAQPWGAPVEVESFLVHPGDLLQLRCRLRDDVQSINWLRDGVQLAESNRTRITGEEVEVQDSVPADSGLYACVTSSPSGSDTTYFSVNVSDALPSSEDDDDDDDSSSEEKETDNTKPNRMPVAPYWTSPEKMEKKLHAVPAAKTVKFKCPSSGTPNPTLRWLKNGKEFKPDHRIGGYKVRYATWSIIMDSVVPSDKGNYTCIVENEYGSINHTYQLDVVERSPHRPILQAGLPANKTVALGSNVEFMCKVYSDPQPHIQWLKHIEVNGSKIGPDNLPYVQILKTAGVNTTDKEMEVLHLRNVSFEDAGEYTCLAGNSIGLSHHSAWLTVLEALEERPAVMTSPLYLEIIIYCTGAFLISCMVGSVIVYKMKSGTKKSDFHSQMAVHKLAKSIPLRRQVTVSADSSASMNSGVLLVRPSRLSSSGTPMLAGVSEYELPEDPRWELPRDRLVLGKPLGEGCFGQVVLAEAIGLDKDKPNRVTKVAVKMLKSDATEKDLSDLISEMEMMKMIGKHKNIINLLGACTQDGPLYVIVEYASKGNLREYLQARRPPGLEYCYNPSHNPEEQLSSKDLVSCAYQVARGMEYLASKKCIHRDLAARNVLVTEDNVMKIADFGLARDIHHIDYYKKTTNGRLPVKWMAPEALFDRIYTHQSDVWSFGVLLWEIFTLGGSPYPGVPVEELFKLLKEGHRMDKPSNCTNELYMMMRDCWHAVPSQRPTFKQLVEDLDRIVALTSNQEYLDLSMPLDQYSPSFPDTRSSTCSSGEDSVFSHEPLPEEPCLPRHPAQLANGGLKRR
# Sequence of UniProt Q4V3D3 (whole entry, looked up): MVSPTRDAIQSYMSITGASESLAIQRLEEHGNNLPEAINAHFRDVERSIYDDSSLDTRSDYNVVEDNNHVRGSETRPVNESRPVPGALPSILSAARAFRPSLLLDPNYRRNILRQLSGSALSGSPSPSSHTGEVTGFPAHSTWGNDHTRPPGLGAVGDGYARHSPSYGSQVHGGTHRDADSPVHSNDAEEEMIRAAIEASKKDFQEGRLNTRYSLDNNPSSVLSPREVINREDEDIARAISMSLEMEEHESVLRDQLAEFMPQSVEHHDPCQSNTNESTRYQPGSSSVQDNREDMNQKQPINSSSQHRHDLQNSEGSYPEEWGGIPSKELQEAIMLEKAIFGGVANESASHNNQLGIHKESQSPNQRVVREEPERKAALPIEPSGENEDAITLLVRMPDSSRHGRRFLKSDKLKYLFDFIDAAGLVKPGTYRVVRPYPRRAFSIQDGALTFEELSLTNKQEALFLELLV
Substance,target or system,test,system,conditions,how to read,quantity,result
B1,IL18BP,SPR,,,,koff,3.1e-05 s⁻¹
B2 (EFR3B 716-787),TTC7B/FAM126B 1-308,BLI,,,,koff,0.000205 s⁻¹
B3 (CDC48A 1-190),"PUX9 (Arabidopsis thaliana, UniProt Q4V3D3)",BLI,,25 °C,,koff,0.0026 s⁻¹
EGLN1 fragment,"HIF1A CODD peptide 556-574, C-terminal amide (Homo sapiens)",BLI,,,,koff,0.037 s⁻¹
PF4/KKO tetramer,GP6 monomer (UniProt Q9HCN6),SPR,,,,koff,0.0016 s⁻¹
B4 (EFR3A 721-791),TTC7A/FAM126B 1-308,BLI,,,,koff,0.000439 s⁻¹
B5 (UPF2 761-1054),"UPF3B (Homo sapiens, UniProt Q9BZI7)",BLI,,,,koff,0.00251 s⁻¹
trastuzumab IgG1 (Homo sapiens),"FCGR1A (Homo sapiens, UniProt P12314)",SPR,,,,koff,0.00049 s⁻¹
"MBL-A mature, hydroxylysine, hydroxyproline in collagen (Rattus norvegicus, UniProt P19999)",C1R fragment (Homo sapiens),SPR,,with: CaCl2 140 mM,,koff,0.00202 s⁻¹
B6 (TNFSF4 51-183),"TNFRSF4 29-170 V53A (Homo sapiens, UniProt P43489)",SPR,,,,koff,0.02 s⁻¹
B7,IL18BP,SPR,,,,koff,4.8e-05 s⁻¹
B8 (designed binder),MALT1,BLI,designed binder,,,koff,0.00977 s⁻¹
B9,IL18BP,SPR,,,,koff,1.9e-05 s⁻¹
"FGA (Homo sapiens, UniProt P02671)","BMP1 (Homo sapiens, UniProt P13497)",cross-linking MS,,with: DSSO,,cross-linked residues,K476 to K766
colistin,Pseudomonas aeruginosa,,clinical isolate RKI 347/12,,,MIC,≤ 1 µg/mL
B10 (EFNB1 28-237),"EPHA2 residues 25-968, auto-phosphorylated (Homo sapiens, UniProt P29317)",BLI,Fc fusion,apparent,,koff,0.467 s⁻¹
B11 (designed binder),MALT1,BLI,designed binder,,,koff,0.0693 s⁻¹
B4 (EFR3A 721-791),TTC7B/FAM126B FAM126B 1-308,BLI,,,,koff,0.000121 s⁻¹
B12 (VHH nanobody 6B1),"FXN 90-210 H177C (Homo sapiens, UniProt Q16595)",BLI,VHH,,,koff,0.000608 s⁻¹
"BIRC3 (Homo sapiens, UniProt Q13489)","KDM2B (Homo sapiens, UniProt Q8NHM5)",cross-linking MS,,with: DSSO,,cross-linked residues,K402 to K999
B13 (designed binder),"EED (Homo sapiens, UniProt O75530)",BLI,designed binder,,,koff,0.00295 s⁻¹
B14,IL18BP,SPR,,,,koff,2.2e-05 s⁻¹
FHDAWPNLSKSS (designed peptide),"FGFR1 22-376 (Homo sapiens, UniProt P11362)",SPR,peptide,,,koff,0.00556 s⁻¹
human filamin C,PP6C (human),"co-immunoprecipitation, IP-MS",CYB5R4 knockout cells,concentration not given,relative to: CYB5R4 knockout over parental,log2 fold change,-0.26
YLPTITGVGHLWHPLC (engineered peptide),VPS35/VPS26A/VPS29 retromer complex (Homo sapiens),SPR,peptide,,,koff,0.01 s⁻¹
B15,IL18BP,SPR,,,,koff,3.2e-05 s⁻¹
B16 (UPF3B),"UPF2 (Homo sapiens, UniProt Q9HAU5)",BLI,,,,koff,0.000583 s⁻¹

# Excerpt of the above:
Substance,target or system,test,system,conditions,how to read,quantity,result
B4 (EFR3A 721-791),TTC7A/FAM126B 1-308,BLI,,,,koff,0.000439 s⁻¹
B5 (UPF2 761-1054),"UPF3B (Homo sapiens, UniProt Q9BZI7)",BLI,,,,koff,0.00251 s⁻¹
trastuzumab IgG1 (Homo sapiens),"FCGR1A (Homo sapiens, UniProt P12314)",SPR,,,,koff,0.00049 s⁻¹
